Experimental data of several laboratories.
Lines come from different studies, so protocols differ. Several values in a cell are separate wells, animals, samples, runs or records. Numbers after ± are the reported error.
UniProt P46109, sequence (whole entry, looked up): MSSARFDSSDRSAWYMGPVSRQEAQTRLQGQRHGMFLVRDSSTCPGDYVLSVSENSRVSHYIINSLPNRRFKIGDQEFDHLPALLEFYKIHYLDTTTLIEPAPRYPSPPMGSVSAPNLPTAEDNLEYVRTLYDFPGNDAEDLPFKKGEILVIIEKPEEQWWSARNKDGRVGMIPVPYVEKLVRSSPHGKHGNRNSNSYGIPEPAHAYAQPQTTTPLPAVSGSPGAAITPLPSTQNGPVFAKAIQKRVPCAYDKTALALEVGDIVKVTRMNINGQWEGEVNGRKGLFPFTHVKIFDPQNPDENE

`Cc1c(C(=O)NN2CCCCC2)nn(-c2ccc(Cl)cc2Cl)c1-c1ccc(I)cc1` — result for tail-flick latency: “no effect” (B6SJL mice; dose not given, compound alone).
`CC[C@H](C)[C@@H]1NC(=O)[C@@H]2CCCN2C(=O)[C@H](CC(C)C)NC(=O)[C@H](CC(C)C)NC(=O)CNC(=O)[C@@H](NC(=O)[C@@H](NC(=O)[C@H](CC(=O)O)NC(=O)CNC(=O)[C@@H](NC(=O)[C@H](C)NC(=O)CNC(=O)[C@H](CCCCN)NC(=O)[C@H](CC(C)C)NC(=O)[C@H](CC(C)C)NC(=O)[C@H](CCCCN)NC(=O)CNC(=O)[C@@H](NC(=O)[C@@H](N)CC(C)C)C(C)C)C(C)C)C(C)C)CSSC[C@@H](C(=O)O)NC1=O` — result for “log2 fold change”: -0.896 (RNA-seq, measured: Nt5dc2 mRNA; mouse traumatic brain injury, frontal cortex and hippocampus; dose not given; reference: TBI plus compound vs TBI).
Under “patients with reduced FDG avidity”, `C=CCNc1c(O)cc2c(O)c1C[C@@H](C)C[C@H](OC)[C@H](O)[C@@H](C)/C=C(\C)[C@H](OC(N)=O)[C@@H](OC)/C=C\C=C(/C)C(=O)N2` is recorded as 66% (18F-FDG PET; human GIST; dose not given).
For `C[C@H]1O[C@@H](O[C@H]2CC[C@@]3(C)[C@@H](CC[C@]4(C)[C@@H]3C=C[C@]35OC[C@@]6(CCC(C)(C)C[C@H]63)[C@@H](O)C[C@]54C)[C@]2(C)CO)[C@H](O)[C@@H](O[C@@H]2O[C@H](CO)[C@@H](O)[C@H](O)[C@H]2O)[C@H]1O`, the adipose area was 11.2% and 11.4% and 13.2% and 11.3% and 16.2% and 12.4% and 15.9% (H&E staining; Mus musculus, chronic-plus-binge ethanol-fed, AAV8-TBG-Null vector, liver; oral, high dose; reference: section).
For `C[C@H](N)Cn1ncc2ccc3c(c21)CCCO3.Cl`, the ED50 was 0.05 mg/kg (DOM stimulus generalization; rat trained on DOM; intraperitoneal, 15 min pretreatment, training dose 1.0 mg/kg DOM).
Under “fusion time constant”, `CCCCCCCCCC(=O)N[C@@H](Cc1c[nH]c2ccccc12)C(=O)N[C@H](CC(N)=O)C(=O)N[C@@H](CC(=O)O)C(=O)N[C@@H]1C(=O)NCC(=O)N[C@@H](CCCN)C(=O)N[C@@H](CC(=O)O)C(=O)N[C@H](C)C(=O)N[C@@H](CC(=O)O)C(=O)NCC(=O)N[C@H](CO)C(=O)N[C@@H]([C@H](C)CC(=O)O)C(=O)N[C@@H](CC(=O)c2ccccc2N)C(=O)O[C@@H]1C` is recorded as 18 ± 9 min (calcein leakage; DOPC/DOPG/CHOL liposomes; concentration not given, together with: 40 mM CaCl2).
`Cc1cn([C@H]2O[C@@H](CO[P@@](=O)(N[C@@H](C)C(=O)OC(C)C)Oc3ccccc3)[C@H](O)[C@H]2F)c(=O)[nH]c1=O` gave a virologic relapse of 0% (measured: detectable HBV DNA; adults with chronic hepatitis B; 25 or 50 mg, week 4, after treatment discontinuation).
`O=S(=O)(O)C(F)(F)C(F)(F)C(F)(F)C(F)(F)C(F)(F)C(F)(F)C(F)(F)C(F)(F)F` — result for gene expression: “decreased” (RNA-seq pathway analysis, measured: drug degradation pathway genes; liver spheroids; top non-cytotoxic, 10 d).
`CCCCCCCCCCCCCCCC(=O)N[C@H]1C[C@@H](O)[C@@H](O)NC(=O)[C@@H]2[C@@H](O)[C@@H](C)CN2C(=O)[C@H]([C@@H](C)O)NC(=O)[C@H]([C@H](O)[C@@H](O)c2ccc(O)cc2)NC(=O)[C@@H]2C[C@@H](O)CN2C(=O)[C@H]([C@@H](C)O)NC1=O` — result for “fusion time constant”: 1 ± 1 min (calcein leakage; DOPC/DOPG/CHOL liposomes; concentration not given, together with: 40 mM CaCl2).
`[131I-].[Na+]` gave a hypothyroid patients of 54.4% (hyperthyroidism patients; 185 MBq, 12 months, long-term follow-up).
Under “motor block duration”, `Cc1cccc(C)c1NC(=O)C1CCCCN1` (centres unmarked) is recorded as 36 min and 24 min (Sprague-Dawley rat, female, sciatic nerve; 60 mM).
For `C[C@]1(CO)Cc2ncn(-c3ccc(C#N)c(Cl)c3)c2C(=O)O1`, “urinary potassium excretion 0-24 h” read 32.6 mmol (Japanese subjects; 3 mg single dose).
`C=CC(=O)Nc1cc(Nc2ncc(Cl)c(Nc3ccccc3C(=O)C(=O)N(C)C)n2)c(OC)cc1N1CCN(C)CC1` — result for “patients with partial response”: 0% (RECIST v1.1 best response; human EGFR T790M NSCLC; oral, 25 mg/day, per-protocol set).
With `Nc1ccn([C@@H]2O[C@H](CO)[C@@H](O)C2(F)F)c(=O)n1` the maximum inhibition was 0% (human coronavirus OC43; virus-induced cell killing; MRC-5; maximum over 10 doses).
With `CCCCC1(CCCC)CN(c2ccccc2)c2cc(SC)c(OCC(=O)N[C@@H](C(=O)NCC(=O)O)c3ccccc3)cc2S(=O)(=O)C1` the serum HDL-C was 51.6 mg/dL (measured: HDL cholesterol; human, serum; 20 mg once daily, day 13).
The relative abundance of `C[C@H]1CN(c2n[nH]c3nc(N[C@H]4CC[C@H](NS(=O)(=O)CCC(F)(F)F)CC4)ncc23)CCO1` is reported as 1.18 (Crk-like protein (Homo sapiens, UniProt P46109); competitor, Kinobeads competition; human cell extract; 0.8 µM; reference: vehicle).
`COc1ccc(CCC2CCCC(CCc3ccc(OC)cc3)N2C[C@@H](O)CO)cc1.Cl` (stereo in doubt) gave a DOPAC overflow of 1080 ± 315 pg/30 mL/mg (rat striatal slices; 100 µM, 30 min, no methamphetamine).
For `Clc1cc2c(cc1Cl)Oc1cc(Cl)c(Cl)cc1O2`, the mRNA level was 1.3 fold (RNA-Seq, measured: Ephx2; female Sprague-Dawley rat, liver; dose not given; reference: vehicle).
`CN1CCN(S(=O)(=O)c2cc([N+](=O)[O-])ccc2N(CCOS(C)(=O)=O)CCOS(C)(=O)=O)CC1` — result for “EFS delay (T-C)”: 30.8 days (NSG mice, sample BA PDX; intraperitoneal, 25 mg/kg weekly x3; reference: vehicle).
`C[C@]12CC[C@H](O)C[C@H]1CC[C@@H]1[C@@H]2CC[C@]2(C)[C@@H](c3ccc(=O)oc3)CC[C@]12O` gave a tumour volume of 45 mm3 and 65.4 mm3 and 73.7 mm3 and 29.8 mm3 and 51.2 mm3 and 58.7 mm3 and 79.6 mm3 (female nude mouse LCC2 xenograft; 1.0 mg/kg, day 17, tamoxifen-resistant).
For `Cc1cc2c(C(C)C)c(O)c(O)c(C=O)c2c(O)c1-c1c(C)cc2c(C(C)C)c(O)c(O)c(C=O)c2c1O`, the maximum inhibition was 0% (human coronavirus OC43; virus-induced cell killing; MRC-5; maximum over 10 doses).
For `O=C(O)/C=C/C(=O)O.Oc1cccc2[nH]cc(CCNCc3ccccc3)c12`, “body temperature change” read 0.3 ± 0.2 °C (C57BL/6J mice; subcutaneous, 0.1 mg/kg; reference: pre-session baseline).
For `Cc1cn(-c2cc(NC(=O)c3ccc(C)c(Nc4nccc(-c5cccnc5)n4)c3)cc(C(F)(F)F)c2)cn1`, the ADAS-Cog score was 27.9 ± 7.2 (human patients; dose not given, baseline, treated group; direction not given).

Some of these lines once more:
Under “patients with reduced FDG avidity”, `C=CCNc1c(O)cc2c(O)c1C[C@@H](C)C[C@H](OC)[C@H](O)[C@@H](C)/C=C(\C)[C@H](OC(N)=O)[C@@H](OC)/C=C\C=C(/C)C(=O)N2` is recorded as 66% (18F-FDG PET; human GIST; dose not given).
